Published values of several laboratories.
Lines come from different studies, so protocols differ.
Target: Serine/threonine-protein kinase RIO3 (RIOK3, Homo sapiens, UniProt O14730)

SMILES = COc1cc(Nc2nccc(-c3cnn4nc(OC)ccc34)n2)cc(C(F)(F)F)c1; read-out = binding; method = competition with immobilised ligand; concentration = 1 µM; remaining binding = 100%
SMILES = C=CC(=O)N1CCCC(n2c(=O)c3ncccc3n(Cc3ccc(Oc4ccccc4)cc3)c2=O)C1 (stereo not shown); read-out = cell-free assay; method = competition with immobilised ligand; concentration = 1 µM; remaining binding = 92%
SMILES = CNC1C[S+]2CC[S+]3CC[S+](C1)[Ru-4]321([N]=C=S)[n]2c3ccc(OC)cc3c3c4c(c5cc(F)c[n+]1c5c32)C(=O)NC4=O (stereo not shown); method = KinomeScan; concentration = 0.1 µM; reference = untreated; remaining binding = 96%
SMILES = COc1c(Cl)cccc1Nc1c(-c2ccncc2C#C[C@@]2(C)CCCN2C(=O)/C=C/CN(C)C)[nH]c2c1C(=O)NCC2; read-out = binding; method = competition with immobilised ligand; concentration = 3 µM; remaining binding = 93%
SMILES = C=CC(=O)N1CCc2ccc(-n3c(=O)ccc4cnc5ccc(-c6cnn(C)c6)cc5c43)cc21; method = KINOMEscan; concentration = 1 µM; reference = DMSO control; remaining binding = 92%
SMILES = CC(C)=CC1OC(C)(C)C2C=C3C(=O)C(Cl)=CC(O)C3C3C(O)C4OC4C(=O)C132 (stereo not shown); read-out = cell-free assay; method = competition with immobilised ligand; concentration = 10 µM; remaining binding = 67%
SMILES = CNC(=O)C1CCN(c2cc(C)c(F)cc2NC(=O)c2ccc(-c3cc(O)ccc3C)c(C)c2)CC1; read-out = binding; method = competition with immobilised ligand; concentration = 1 µM; remaining binding = 100%
SMILES = Nc1ncc2c(n1)-c1c([nH]c3ccc(C4=CCOCC4)cc13)CCC2; read-out = binding; method = competition with immobilised ligand; concentration = 1 µM; remaining binding = 100%
SMILES = COc1cc(Nc2nc(C)cc(-c3cnn4nc(OC)ccc34)n2)cc(C(F)(F)F)c1; read-out = binding; method = competition with immobilised ligand; concentration = 1 µM; remaining binding = 86%
SMILES = Cc1ccc(-c2c(/C=C(\C#N)C(=O)NC(C)C)n(CCCO)c3ncnc(N)c23)cc1; read-out = cell-free assay; method = competition with immobilised ligand; concentration = 1 µM; remaining binding = 84%
SMILES = C[C@]1(O)CCCN(c2nc(Nc3ccc(S(=O)(=O)N[C@H]4CC[C@H](CN5CCN(c6ccc(C7CCC(=O)NC7=O)cc6F)CC5)CC4)cc3)ncc2C(F)(F)F)C1 (stereo partly shown); read-out = binding; method = competition with immobilised ligand; concentration = 1 µM; remaining binding = 1.2%
SMILES = CCN1CCN(Cc2ccc(C(=O)Nc3ccc(C)c(NCc4cnc5[nH]ccc5c4OC)c3)cc2C(F)(F)F)CC1; read-out = binding; method = competition with immobilised ligand; concentration = 1 µM; remaining binding = 73%
SMILES = Cc1cnc2nc1Nc1cccc(c1)COC/C=C/COCc1cc(ccc1OCCN1CCOCC1)N2; read-out = binding; method = competition with immobilised ligand; concentration = 0.1 µM; remaining binding = 100%

For quick reference, copied from above:
SMILES = COc1cc(Nc2nc(C)cc(-c3cnn4nc(OC)ccc34)n2)cc(C(F)(F)F)c1; read-out = binding; method = competition with immobilised ligand; concentration = 1 µM; remaining binding = 86%
